# Results collected from several papers.
# Each line is one published result; not all experiments were run side by side. Several values in a cell are separate wells, animals, samples, runs or records. Numbers after ± are the reported error.
Molecule,target or system,assay,test system,conditions,quantity,result
CCC(=O)Nc1cc(Nc2cc(NC3CC3)n3ncc(C#N)c3n2)ccc1N(C)CCN1CCCC1,murine hepatitis virus,"viral replication, nanoluciferase reporter",DBT,10 h,IC50,0.794 µM
CC[C@H](C)[C@H](NC(=O)[C@H](CC(C)C)NC(=O)[C@H](Cc1c[nH]cn1)NC(=O)[C@H](Cc1c[nH]cn1)NC(=O)[C@@H](NC(=O)[C@H](Cc1ccccc1)NC(=O)[C@H](Cc1c[nH]cn1)NC(=O)[C@H](Cc1c[nH]c2ccccc12)NC(=O)[C@@H](NC(=O)[C@H](Cc1c[nH]cn1)NC(=O)[C@H](Cc1c[nH]cn1)NC(=O)[C@H](Cc1c[nH]c2ccccc12)NC(=O)[C@@H](N)CC(C)C)[C@@H](C)CC)C(C)C)C(N)=O,Herpes simplex virus 1,"virus inactivation, plaque reduction","Vero, F",37 °C,IC50,0.86 µg/mL
C/C(=C\Cc1c(O)c(Cl)c(C)c(C=O)c1O)CC/C=C(\C)[C@@H]1CC(=O)C(C)(C)O1,Wickerhamomyces anomalus,"O2 uptake, inhibitor",mitochondria,added: succinate 15 mM,IC50,14.5 µM
CC(=O)Nc1ccc2ccn(-c3cc(NC4CCN(C)CC4)n4ncc(C#N)c4n3)c2c1,murine hepatitis virus,"viral replication, nanoluciferase reporter",DBT,10 h,IC50,3.16 µM
O=Cc1cn(Cc2ccc(F)cc2)c2ccc([N+](=O)[O-])cc12,Trypanosoma brucei rhodesiense,,"trypomastigotes, IL1501",,IC50,83.8 ± 2.62 µM
CC[C@H](C)[C@H](NC(=O)[C@H](CCCNC(=N)N)NC(=O)[C@H](Cc1ccccc1)NC(=O)[C@H](Cc1c[nH]cn1)NC(=O)[C@@H](NC(=O)[C@H](Cc1ccccc1)NC(=O)[C@H](CC(C)C)NC(=O)[C@H](CC(C)C)NC(=O)[C@H](CCC(N)=O)NC(=O)[C@H](CCC(N)=O)NC(=O)[C@H](CC(C)C)NC(C)=O)[C@@H](C)CC)C(=O)NCC(=O)N[C@@H](CCCNC(=N)N)C(=O)N[C@@H](CCCNC(=N)N)C(=O)N[C@@H](CCCNC(=N)N)C(=O)N[C@@H](CCCNC(=N)N)C(=O)N[C@@H](CCCNC(=N)N)C(=O)N[C@@H](CCCNC(=N)N)C(=O)N[C@@H](CCCNC(=N)N)C(=O)N[C@@H](CCCNC(=N)N)C(N)=O,HIV-1 JR-CSF (R5-tropic),"viral replication, inhibitor, refers to: p24",NP2-CD4-CCR5,day 4,IC50,~0.8 µM
CO/C(=C/C(N)=O)[C@H](C)[C@H](/C=C/c1csc(-c2csc([C@@H](C)/C=C/C=C/C(C)C)n2)n1)OC,Wickerhamomyces anomalus,"O2 uptake, inhibitor",mitochondria,added: malate and pyruvate 15 mM,IC50,0.085 µM
CC(C)C1=CC2=CC(=O)[C@H]3C(C)(C)CCC[C@]3(C)C2=C(O)C1=O,Leishmania amazonensis,parasite growth,mouse Peritoneal macrophage,"72 h, intracellular, amastigote",IC50,4.5 µg/mL
Nc1nc(N)nc(Nc2ccc([As]3SCC(CO)S3)cc2)n1 (stereo not drawn),Trypanosoma brucei rhodesiense,,STIB900 bloodstream form,72 h,IC50,0.003 µg/mL
CC(=O)Nc1ccc2ccn(-c3cc(NCC4CCOC4)n4ncc(C#N)c4n3)c2c1 (stereo not drawn),murine hepatitis virus,"viral replication, nanoluciferase reporter",DBT,10 h,IC50,0.631 µM
meglumine antimoniate,Leishmania infantum,,,promastigotes,IC50,18 ± 3.1 µM
CO/C(=C/C(N)=O)[C@H](C)[C@H](/C=C/c1csc(-c2csc([C@@H](C)/C=C/C=C/C(C)C)n2)n1)OC,Plasmodium yoelii,oxygen consumption,17XL,,IC50,0.2 µM
OCC1CC(n2cnc3c(SCc4ccc(F)cc4)ncnc32)C(O)C1O (stereo not drawn),Toxoplasma gondii,"parasite growth, radiolabelled uracil incorporation","RH wild type, tissue culture",,IC50,23.2 ± 1.3 µM
CC[C@H](C)[C@H](NC(=O)[C@H](CC(C)C)NC(=O)CNC(=O)[C@@H]1CCCN1C(=O)[C@H](CC(C)C)NC(=O)[C@H](C)NC(=O)[C@H](CCCCN)NC(=O)CNC(=O)[C@H](CC(C)C)NC(=O)[C@H](CCSC)NC(=O)[C@H](CCCCN)NC(=O)[C@H](C)NC(=O)[C@H](C)NC(=O)[C@H](C)NC(=O)CNC(=O)[C@H](Cc1c[nH]c2ccccc12)NC(=O)[C@@H](N)Cc1ccccc1)C(=O)N[C@@H](CO)C(=O)N[C@@H](CCSC)C(=O)N[C@@H](Cc1ccccc1)C(=O)N[C@@H](CCC(N)=O)C(=O)N[C@@H](CCCCN)C(=O)N[C@@H](CC(N)=O)C(=O)O,Haemonchus contortus,larval development,Kirby isolate,"6 days, 26 °C",IC50,< 6 µM and 5.1 µM
CN[C@@](C)(C[18F])C(=O)O,A549 tumour model,,"host not given, kidney","30 min, tumour-bearing",tracer uptake,15 %ID/g
N#Cc1ccc(CSc2ncnc3c2ncn3C2CC(CO)C(O)C2O)cc1 (stereo not drawn),Toxoplasma gondii,"parasite growth, radiolabelled uracil incorporation","RH wild type, tissue culture",,IC50,49 ± 10.3 µM
O=Cc1cn(Cc2cccc(Cl)c2)c2ccc([N+](=O)[O-])cc12,Leishmania donovani,"parasite growth, resazurin",THP-1,"72 h, intracellular, amastigote",IC50,> 10 µM
CC(=O)Nc1ccc2ccn(-c3cc(NCC4COC4)n4ncc(C#N)c4n3)c2c1,murine hepatitis virus,"viral replication, nanoluciferase reporter",DBT,10 h,IC50,3.98 µM
O=[N+]([O-])c1ccc(CSc2ncnc3c2ncn3C2CC(CO)C(O)C2O)cc1 (stereo not drawn),Toxoplasma gondii,"parasite growth, radiolabelled uracil incorporation","RH wild type, tissue culture",,IC50,43 µM and 42.8 µM
N#CSCCOc1ccc(Oc2ccccc2)cc1,Toxoplasma gondii,,tachyzoites,,IC50,4.8 ± 0.41 µM
CC(C)c1cc2c(c(O)c1O)[C@@]1(C)CCCC(C)(C)C1=C(O)C2=O,Leishmania amazonensis,parasite growth,mouse Peritoneal macrophage,"72 h, intracellular, amastigote",IC50,4.3 µg/mL
COC(=O)CC(O)c1cc(OC)c(O)c(OC)c1 (stereo not drawn),human rhinovirus 2,cytopathic effect,HeLa,72 h,IC50,inactive
N=C(N)N[C@@H]1Cc2ccccc2[C@H]1NC(=O)C(=O)Nc1ccc(Cl)c(F)c1,HIV-1 YU2,viral infection,Cf2Th-CD4/CCR5,,IC50,22.9 µM
Cc1ccc(Cn2cc(C=O)c3cc([N+](=O)[O-])ccc32)cc1,Trypanosoma equiperdum,,"trypomastigotes, IVM-t1",,IC50,> 85 µM
CCCC[C@H]1C(=O)O[C@H](C)[C@H](NC(=O)c2cccc(NC=O)c2O)C(=O)O[C@@H](C)[C@@H]1OC(=O)CC(C)C,Wickerhamomyces anomalus,"O2 uptake, inhibitor",mitochondria,added: glycerol 3-phosphate 20 mM,IC50,0.026 µM
C[C@@H]1N[C@H](CCCCCCCCCCC2=C[C@@H](CCCCCCCCCC[C@@H]3CC[C@@H](O)[C@H](C)N3)[C@@H]3CCCN3C2)CC[C@H]1O,Leishmania donovani,parasite growth,THP-1,"intracellular, amastigote",IC50,1.08 µg/mL
CC(=O)Nc1ccc2ccn(-c3cc(NCC4CCOCC4)n4ncc(C#N)c4n3)c2c1,murine hepatitis virus,"viral replication, nanoluciferase reporter",DBT,10 h,IC50,1 µM
O=Cc1cn(Cc2ccccc2)c2ccc([N+](=O)[O-])cc12,Leishmania major,"parasite growth, resazurin",THP-1,"72 h, intracellular, amastigote",IC50,> 10 µM
O=C(O)C(Cl)Cl,Leishmania infantum,intracellular amastigotes,U-937 macrophages,48 h,IC50,632 ± 0.0163 µM
CN1CCCN2CCN(CCCN(Cc3ccccc3)CC2)CC1,Leishmania donovani,"parasite growth, resazurin",,"72 h, promastigote",IC50,> 20 µM

# Some of these lines once more:
Molecule,target or system,assay,test system,conditions,quantity,result
Nc1nc(N)nc(Nc2ccc([As]3SCC(CO)S3)cc2)n1 (stereo not drawn),Trypanosoma brucei rhodesiense,,STIB900 bloodstream form,72 h,IC50,0.003 µg/mL
CC(=O)Nc1ccc2ccn(-c3cc(NCC4CCOC4)n4ncc(C#N)c4n3)c2c1 (stereo not drawn),murine hepatitis virus,"viral replication, nanoluciferase reporter",DBT,10 h,IC50,0.631 µM
meglumine antimoniate,Leishmania infantum,,,promastigotes,IC50,18 ± 3.1 µM
CO/C(=C/C(N)=O)[C@H](C)[C@H](/C=C/c1csc(-c2csc([C@@H](C)/C=C/C=C/C(C)C)n2)n1)OC,Plasmodium yoelii,oxygen consumption,17XL,,IC50,0.2 µM
OCC1CC(n2cnc3c(SCc4ccc(F)cc4)ncnc32)C(O)C1O (stereo not drawn),Toxoplasma gondii,"parasite growth, radiolabelled uracil incorporation","RH wild type, tissue culture",,IC50,23.2 ± 1.3 µM
